{"data": "Results gathered from unrelated publications", "note": "Numbered parts are unrelated; each lists some results of a single study.", "UniProt Q08881, sequence (whole entry, looked up)": "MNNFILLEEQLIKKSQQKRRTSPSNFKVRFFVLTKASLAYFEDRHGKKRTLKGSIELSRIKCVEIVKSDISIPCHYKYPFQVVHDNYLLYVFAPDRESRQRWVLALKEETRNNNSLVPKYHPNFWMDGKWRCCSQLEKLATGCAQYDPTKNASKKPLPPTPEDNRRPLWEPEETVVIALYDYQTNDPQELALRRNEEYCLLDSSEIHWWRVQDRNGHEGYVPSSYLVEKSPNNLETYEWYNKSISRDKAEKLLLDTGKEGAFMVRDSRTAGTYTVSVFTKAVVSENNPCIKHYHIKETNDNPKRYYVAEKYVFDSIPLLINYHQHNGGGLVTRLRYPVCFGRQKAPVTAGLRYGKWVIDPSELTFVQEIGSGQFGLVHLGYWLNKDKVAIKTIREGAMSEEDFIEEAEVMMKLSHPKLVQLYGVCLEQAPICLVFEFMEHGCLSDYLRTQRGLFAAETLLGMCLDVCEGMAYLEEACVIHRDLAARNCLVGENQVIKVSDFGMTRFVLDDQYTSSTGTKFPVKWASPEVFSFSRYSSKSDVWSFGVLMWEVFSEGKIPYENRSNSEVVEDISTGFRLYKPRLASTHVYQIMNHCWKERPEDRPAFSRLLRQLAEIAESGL", "UniProt P10721, sequence (whole entry, unmodified, looked up)": "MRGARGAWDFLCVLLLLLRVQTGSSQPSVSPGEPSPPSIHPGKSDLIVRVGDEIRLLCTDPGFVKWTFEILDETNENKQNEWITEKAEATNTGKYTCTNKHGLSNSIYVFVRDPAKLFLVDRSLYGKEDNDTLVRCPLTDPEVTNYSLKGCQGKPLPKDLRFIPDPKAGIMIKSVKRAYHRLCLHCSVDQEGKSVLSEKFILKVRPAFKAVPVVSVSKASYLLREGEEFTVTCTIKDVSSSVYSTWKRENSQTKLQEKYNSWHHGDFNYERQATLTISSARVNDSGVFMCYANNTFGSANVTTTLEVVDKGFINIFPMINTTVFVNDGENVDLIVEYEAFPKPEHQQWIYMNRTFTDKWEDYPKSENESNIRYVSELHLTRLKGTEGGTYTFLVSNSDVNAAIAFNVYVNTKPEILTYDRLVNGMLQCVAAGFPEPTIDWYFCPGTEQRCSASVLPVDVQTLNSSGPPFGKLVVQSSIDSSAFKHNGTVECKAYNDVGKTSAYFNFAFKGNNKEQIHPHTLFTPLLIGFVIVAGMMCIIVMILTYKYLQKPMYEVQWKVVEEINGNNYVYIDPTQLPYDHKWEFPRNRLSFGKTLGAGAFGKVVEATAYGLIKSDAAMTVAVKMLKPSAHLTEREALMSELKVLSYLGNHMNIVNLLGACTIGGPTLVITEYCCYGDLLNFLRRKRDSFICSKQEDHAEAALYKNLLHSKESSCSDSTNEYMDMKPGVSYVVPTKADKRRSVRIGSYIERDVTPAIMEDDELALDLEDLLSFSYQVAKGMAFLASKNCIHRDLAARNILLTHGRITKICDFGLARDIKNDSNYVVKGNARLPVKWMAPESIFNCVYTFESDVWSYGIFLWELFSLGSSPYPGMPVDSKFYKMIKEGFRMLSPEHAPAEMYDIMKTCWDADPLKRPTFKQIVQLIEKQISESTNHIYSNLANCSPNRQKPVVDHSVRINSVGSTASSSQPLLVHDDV", "UniProt Q13464, sequence (whole entry, looked up)": "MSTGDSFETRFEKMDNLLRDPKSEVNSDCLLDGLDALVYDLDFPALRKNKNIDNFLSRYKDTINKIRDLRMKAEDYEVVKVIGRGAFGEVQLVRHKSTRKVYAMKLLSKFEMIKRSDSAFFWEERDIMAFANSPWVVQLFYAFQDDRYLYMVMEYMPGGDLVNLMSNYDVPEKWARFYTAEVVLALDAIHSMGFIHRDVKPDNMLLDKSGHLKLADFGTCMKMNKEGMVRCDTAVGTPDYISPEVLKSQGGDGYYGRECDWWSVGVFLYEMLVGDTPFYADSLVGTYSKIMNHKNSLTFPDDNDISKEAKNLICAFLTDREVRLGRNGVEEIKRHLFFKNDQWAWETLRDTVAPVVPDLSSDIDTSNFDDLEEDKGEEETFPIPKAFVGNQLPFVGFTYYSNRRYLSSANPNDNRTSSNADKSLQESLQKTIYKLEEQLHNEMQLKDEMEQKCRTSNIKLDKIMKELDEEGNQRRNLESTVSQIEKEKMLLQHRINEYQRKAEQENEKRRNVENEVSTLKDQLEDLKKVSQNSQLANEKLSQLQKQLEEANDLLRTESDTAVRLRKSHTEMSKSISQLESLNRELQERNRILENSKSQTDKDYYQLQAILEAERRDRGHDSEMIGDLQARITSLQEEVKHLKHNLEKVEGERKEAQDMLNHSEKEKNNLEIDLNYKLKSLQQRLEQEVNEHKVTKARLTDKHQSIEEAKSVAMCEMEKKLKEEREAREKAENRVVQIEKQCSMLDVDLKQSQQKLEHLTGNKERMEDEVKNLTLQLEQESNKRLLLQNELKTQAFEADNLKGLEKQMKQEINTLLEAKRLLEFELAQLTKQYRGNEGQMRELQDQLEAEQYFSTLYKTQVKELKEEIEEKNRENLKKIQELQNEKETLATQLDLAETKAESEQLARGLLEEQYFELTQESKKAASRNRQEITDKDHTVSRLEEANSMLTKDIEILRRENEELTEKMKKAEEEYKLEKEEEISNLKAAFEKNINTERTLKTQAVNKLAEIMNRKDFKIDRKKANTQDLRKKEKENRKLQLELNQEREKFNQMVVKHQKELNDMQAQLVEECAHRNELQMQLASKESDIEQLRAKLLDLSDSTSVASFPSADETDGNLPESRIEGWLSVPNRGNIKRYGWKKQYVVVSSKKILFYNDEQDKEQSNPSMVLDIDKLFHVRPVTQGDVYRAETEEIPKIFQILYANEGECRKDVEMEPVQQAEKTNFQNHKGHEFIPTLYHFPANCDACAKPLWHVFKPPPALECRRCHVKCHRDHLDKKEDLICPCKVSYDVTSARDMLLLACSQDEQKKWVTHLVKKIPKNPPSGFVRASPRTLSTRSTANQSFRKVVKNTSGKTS", "UniProt O15146, sequence (whole entry, looked up)": "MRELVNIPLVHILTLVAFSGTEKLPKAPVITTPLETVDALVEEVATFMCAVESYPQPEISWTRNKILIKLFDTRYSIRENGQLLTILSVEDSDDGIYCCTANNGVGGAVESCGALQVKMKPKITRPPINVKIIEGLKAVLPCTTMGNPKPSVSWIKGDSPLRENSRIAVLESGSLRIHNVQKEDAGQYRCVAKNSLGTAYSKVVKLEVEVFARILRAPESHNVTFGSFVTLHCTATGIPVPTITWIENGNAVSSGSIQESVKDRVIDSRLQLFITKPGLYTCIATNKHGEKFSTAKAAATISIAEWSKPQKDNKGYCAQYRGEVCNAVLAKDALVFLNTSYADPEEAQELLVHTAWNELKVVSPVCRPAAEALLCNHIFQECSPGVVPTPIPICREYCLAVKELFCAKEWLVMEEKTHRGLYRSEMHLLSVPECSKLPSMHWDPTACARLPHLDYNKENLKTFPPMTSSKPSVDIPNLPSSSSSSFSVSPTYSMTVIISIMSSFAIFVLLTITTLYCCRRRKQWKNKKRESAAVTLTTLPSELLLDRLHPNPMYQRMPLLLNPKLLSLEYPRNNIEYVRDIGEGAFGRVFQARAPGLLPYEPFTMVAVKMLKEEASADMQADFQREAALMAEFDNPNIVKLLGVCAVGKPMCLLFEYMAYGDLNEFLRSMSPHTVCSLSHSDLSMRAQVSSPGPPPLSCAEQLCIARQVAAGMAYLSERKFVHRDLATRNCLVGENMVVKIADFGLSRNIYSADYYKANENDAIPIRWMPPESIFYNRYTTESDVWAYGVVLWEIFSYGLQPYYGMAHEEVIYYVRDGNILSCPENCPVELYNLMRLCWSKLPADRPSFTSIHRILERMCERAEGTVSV"}
{"data": "Set 1", "read-out": "AlphaScreen signal", "technique": "AlphaScreen counter screen", "sample": "His6 peptide without bromodomain", "concentration": "50 µM", "setting": "assay interference check"}
{"SMILES": "CN1CCN(c2nccn3c(-c4ccoc4)cnc23)CC1", "inhibition [%]": 21.1}
{"SMILES": "COCCNCc1ccc(-c2cc3nccc(Oc4ccc(NC(=S)NC(=O)Cc5ccc(F)cc5)cc4F)c3s2)nc1", "inhibition [%]": 43.1}
{"SMILES": "COC(=O)Cn1cc(C=C2SC(=O)NC2=O)c2ccccc21", "inhibition [%]": 6.35}
{"SMILES": "O=C1NC(=O)[C@@H](c2cn3c4c(cccc24)CCC3)[C@@H]1c1c[nH]c2ccccc12", "inhibition [%]": 55.5}
{"SMILES": "COc1ncc(-c2ccc3nccc(-c4ccnnc4)c3c2)cc1NS(=O)(=O)c1ccc(F)cc1F", "inhibition [%]": 17.9}
{"SMILES": "CCN(CC)c1ccc(Nc2nc(-c3c(C)nc4ccccn34)cs2)cc1", "inhibition [%]": 96.8}
{"SMILES": "O=C(NCc1ccco1)C(=O)c1cn(CC(=O)N2CCOCC2)c2ccccc12", "inhibition [%]": 22.9}
{"SMILES": "N#Cc1c(-c2ccccc2)cc(-c2cc(Br)ccc2O)[nH]c1=O", "inhibition [%]": -5.75}
{"data": "Set 2", "Compound": "COCCOc1nc(-c2ccc(Cl)nc2)nc2c1CN(C(=O)c1ncn3ccccc13)CC2", "read-out": "cell-free assay", "technique": "competition with immobilised ligand", "concentration": "0.1 µM"}
{"target": "MUSK (Homo sapiens, UniProt O15146)", "remaining binding": "100%"}
{"target": "ITK (Homo sapiens, UniProt Q08881)", "remaining binding": "100%"}
{"target": "KIT (Homo sapiens, UniProt P10721, D816V)", "remaining binding": "100%"}
{"target": "ROCK1 (Homo sapiens, UniProt Q13464)", "remaining binding": "93%"}
{"target": "PIK3CA (Homo sapiens, UniProt P42336, I800L)", "remaining binding": "66%"}
{"data": "Set 3", "species": "human", "sample": "microsomes or S9", "concentration": "2 µM", "time": "0.5 h"}
{"SMILES": "CC(C)n1nc(-c2ccc3nc(N)sc3c2)c2c(N)ncnc21", "remaining compound [%]": "> 99"}
{"SMILES": "Cc1cccc(C(O)(C(=O)NNc2ccc(Br)cn2)c2cccc(C)c2)c1", "remaining compound [%]": 10.7}
{"SMILES": "CCc1cc2c(NCCO)nc(-c3ccccc3)nc2s1", "remaining compound [%]": 62.2}
{"SMILES": "COc1c(Br)ccc2c1sc1ncnc(NC(C)C(=O)O)c12 (stereo not shown)", "remaining compound [%]": 39.9}
{"SMILES": "N#Cc1cccc(-c2cncc3cc(-c4ccccc4C(=O)O)oc23)c1", "remaining compound [%]": 83.2}
{"SMILES": "Cc1ccc(S(=O)(=O)n2cc(-c3cc(Cl)c(O)c(Cl)c3)c3c(N4CCN(C(=O)c5ccccc5)CC4)ncnc32)cc1", "remaining compound [%]": 61.5}
{"SMILES": "COc1ccc(Cl)cc1NC(=O)N1Cc2c(sc3c2CCCC3)-n2cccc2C1c1cccc(F)c1 (stereo not shown)", "remaining compound [%]": 49.2}
{"SMILES": "Cc1cccc(Cn2c3cc(=O)n(CCC4C=Nc5ccccc54)c(C)c3c(=O)n2-c2ccccc2)c1 (stereo not shown)", "remaining compound [%]": 14.2}
{"data": "Set 4", "target": "Protein kinase C beta type, isoform beta-I (PRKCB, Homo sapiens, UniProt P05771)", "read-out": "enzyme activity", "mode": "inhibitor", "concentration": "0.5 µM", "relative to": "control", "UniProt P05771, sequence (whole entry, looked up)": "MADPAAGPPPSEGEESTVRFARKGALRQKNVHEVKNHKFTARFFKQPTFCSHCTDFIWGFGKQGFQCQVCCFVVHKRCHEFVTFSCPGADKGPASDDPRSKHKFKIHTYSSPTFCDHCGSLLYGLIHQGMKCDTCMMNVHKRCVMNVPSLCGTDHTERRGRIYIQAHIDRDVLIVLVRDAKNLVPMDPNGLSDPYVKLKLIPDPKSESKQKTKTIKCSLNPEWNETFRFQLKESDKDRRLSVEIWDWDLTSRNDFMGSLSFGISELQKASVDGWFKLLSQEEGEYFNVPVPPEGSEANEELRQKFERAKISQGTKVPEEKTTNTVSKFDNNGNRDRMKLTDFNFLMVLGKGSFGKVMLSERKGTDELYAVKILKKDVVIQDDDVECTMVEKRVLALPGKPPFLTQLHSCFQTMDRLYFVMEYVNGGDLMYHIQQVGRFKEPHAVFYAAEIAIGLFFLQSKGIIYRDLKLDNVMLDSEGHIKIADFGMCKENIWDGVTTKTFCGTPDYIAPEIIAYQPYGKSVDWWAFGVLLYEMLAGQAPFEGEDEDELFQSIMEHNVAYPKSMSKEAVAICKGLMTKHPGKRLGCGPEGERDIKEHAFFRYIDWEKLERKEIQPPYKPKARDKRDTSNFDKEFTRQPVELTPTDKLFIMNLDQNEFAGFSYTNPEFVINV"}
{"Structure (SMILES)": "N#CCCc1ccc2c(c1)-c1[nH]c3ccc([N+](=O)[O-])cc3c1CC(=O)N2", "remaining activity": "97.4%"}
{"Structure (SMILES)": "Nc1ncnc2n[nH]c(Nc3ccc(F)cc3)c12", "remaining activity": "95.9%"}
{"Structure (SMILES)": "OCC(O)CCON=C1C(c2c(O)[nH]c3ccccc23)=Nc2ccccc21 (stereo not shown)", "remaining activity": "93.6%"}
{"Structure (SMILES)": "COc1cc2ncnc(Nc3ccc(Oc4ccccc4)cc3)c2cc1OC", "remaining activity": "109%"}
{"Structure (SMILES)": "C#Cc1cccc(Nc2ncnc3cc(OCCOC)c(OCCOC)cc23)c1", "remaining activity": "92.4%"}
{"Structure (SMILES)": "COc1ccc(OC)c2c(=S)c3ccccc3[nH]c12", "remaining activity": "101%"}
{"Structure (SMILES)": "Cc1cccc(-c2[nH]c(C(C)(C)C)nc2-c2ccc3c(c2)OCO3)n1", "remaining activity": "82.5%"}
{"Structure (SMILES)": "COc1ccc(C(=O)Nc2sc3c(c2C(N)=O)CCCC3)cc1OC", "remaining activity": "91.8%"}
{"Structure (SMILES)": "CC(C)[C@H](CO)Nc1nc(Nc2cc(N)cc(Cl)c2)c2ncn(C(C)C)c2n1", "remaining activity": "98.8%"}
{"Structure (SMILES)": "COc1cc2nccc(Oc3ccc(NC(=S)NC(=O)c4ccccc4C)cc3)c2cc1OC", "remaining activity": "91.9%"}
{"Structure (SMILES)": "Cc1ccc(Nc2nccc(N(C)c3ccc4c(C)n(C)nc4c3)n2)cc1S(N)(=O)=O", "remaining activity": "91%"}
{"Structure (SMILES)": "CO[C@H]1C[C@@H]2CC[C@@H](C)[C@@](O)(O2)C(=O)C(=O)N2CCCC[C@H]2C(=O)O[C@H]([C@H](C)C[C@@H]2CC[C@@H](O)[C@H](OC)C2)CC(=O)[C@H](C)/C=C(\\C)[C@@H](O)[C@@H](OC)C(=O)[C@H](C)C[C@H](C)/C=C/C=C/C=C/1C", "remaining activity": "102%"}
{"Structure (SMILES)": "CNC(=O)c1cc(Oc2ccc(NC(=O)Nc3ccc(Cl)c(C(F)(F)F)c3)cc2)ccn1", "remaining activity": "95.1%"}
{"Structure (SMILES)": "Cn1c2ccccc2c2c3c(c4c5ccccc5n(CCC#N)c4c21)CNC3=O", "remaining activity": "18.7%"}
{"Structure (SMILES)": "O=C1NC(=O)C(c2cn(CCCn3ccnc3)c3ccccc23)=C1Nc1ccccc1", "remaining activity": "9.78%"}
{"Structure (SMILES)": "O=C(Nc1cccc(Nc2cc(Nc3cccc(C(F)(F)F)c3)ncn2)c1)C1CC1", "remaining activity": "93.2%"}
{"note": "Repeated from above (set 3):"}
{"SMILES": "CC(C)n1nc(-c2ccc3nc(N)sc3c2)c2c(N)ncnc21", "remaining compound [%]": "> 99"}
{"SMILES": "N#Cc1cccc(-c2cncc3cc(-c4ccccc4C(=O)O)oc23)c1", "remaining compound [%]": 83.2}
{"SMILES": "Cc1cccc(C(O)(C(=O)NNc2ccc(Br)cn2)c2cccc(C)c2)c1", "remaining compound [%]": 10.7}
{"SMILES": "CCc1cc2c(NCCO)nc(-c3ccccc3)nc2s1", "remaining compound [%]": 62.2}
{"SMILES": "COc1c(Br)ccc2c1sc1ncnc(NC(C)C(=O)O)c12 (stereo not shown)", "remaining compound [%]": 39.9}
